Measurements of several laboratories.
Every numbered part comes from another study and shows a few of its results, in no order.
UniProt P10721, sequence (whole entry, unmodified, looked up): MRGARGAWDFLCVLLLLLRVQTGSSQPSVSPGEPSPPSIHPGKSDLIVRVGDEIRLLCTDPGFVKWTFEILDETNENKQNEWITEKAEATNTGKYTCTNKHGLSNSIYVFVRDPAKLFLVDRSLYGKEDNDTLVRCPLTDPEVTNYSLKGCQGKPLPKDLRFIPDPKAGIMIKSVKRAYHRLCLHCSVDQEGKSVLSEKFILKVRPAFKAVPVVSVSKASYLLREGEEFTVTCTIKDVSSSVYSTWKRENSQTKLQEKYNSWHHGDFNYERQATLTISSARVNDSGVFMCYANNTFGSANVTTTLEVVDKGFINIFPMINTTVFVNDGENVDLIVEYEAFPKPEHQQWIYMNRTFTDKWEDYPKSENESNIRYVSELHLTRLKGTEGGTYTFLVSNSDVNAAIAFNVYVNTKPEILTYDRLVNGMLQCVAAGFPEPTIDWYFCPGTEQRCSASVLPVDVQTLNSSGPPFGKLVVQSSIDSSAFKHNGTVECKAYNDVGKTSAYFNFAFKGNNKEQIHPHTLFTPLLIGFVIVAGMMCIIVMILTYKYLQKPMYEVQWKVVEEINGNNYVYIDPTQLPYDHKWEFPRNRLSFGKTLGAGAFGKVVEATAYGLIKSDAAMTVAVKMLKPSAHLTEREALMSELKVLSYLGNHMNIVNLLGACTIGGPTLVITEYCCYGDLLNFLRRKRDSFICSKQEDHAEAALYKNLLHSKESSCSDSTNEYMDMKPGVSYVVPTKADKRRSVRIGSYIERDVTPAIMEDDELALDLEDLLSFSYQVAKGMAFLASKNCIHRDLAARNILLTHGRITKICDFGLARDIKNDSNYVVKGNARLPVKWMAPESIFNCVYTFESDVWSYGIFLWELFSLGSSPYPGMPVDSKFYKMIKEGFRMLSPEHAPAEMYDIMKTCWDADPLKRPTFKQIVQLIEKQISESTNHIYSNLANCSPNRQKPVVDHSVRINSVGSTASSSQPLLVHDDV
UniProt O14578, sequence (whole entry, looked up): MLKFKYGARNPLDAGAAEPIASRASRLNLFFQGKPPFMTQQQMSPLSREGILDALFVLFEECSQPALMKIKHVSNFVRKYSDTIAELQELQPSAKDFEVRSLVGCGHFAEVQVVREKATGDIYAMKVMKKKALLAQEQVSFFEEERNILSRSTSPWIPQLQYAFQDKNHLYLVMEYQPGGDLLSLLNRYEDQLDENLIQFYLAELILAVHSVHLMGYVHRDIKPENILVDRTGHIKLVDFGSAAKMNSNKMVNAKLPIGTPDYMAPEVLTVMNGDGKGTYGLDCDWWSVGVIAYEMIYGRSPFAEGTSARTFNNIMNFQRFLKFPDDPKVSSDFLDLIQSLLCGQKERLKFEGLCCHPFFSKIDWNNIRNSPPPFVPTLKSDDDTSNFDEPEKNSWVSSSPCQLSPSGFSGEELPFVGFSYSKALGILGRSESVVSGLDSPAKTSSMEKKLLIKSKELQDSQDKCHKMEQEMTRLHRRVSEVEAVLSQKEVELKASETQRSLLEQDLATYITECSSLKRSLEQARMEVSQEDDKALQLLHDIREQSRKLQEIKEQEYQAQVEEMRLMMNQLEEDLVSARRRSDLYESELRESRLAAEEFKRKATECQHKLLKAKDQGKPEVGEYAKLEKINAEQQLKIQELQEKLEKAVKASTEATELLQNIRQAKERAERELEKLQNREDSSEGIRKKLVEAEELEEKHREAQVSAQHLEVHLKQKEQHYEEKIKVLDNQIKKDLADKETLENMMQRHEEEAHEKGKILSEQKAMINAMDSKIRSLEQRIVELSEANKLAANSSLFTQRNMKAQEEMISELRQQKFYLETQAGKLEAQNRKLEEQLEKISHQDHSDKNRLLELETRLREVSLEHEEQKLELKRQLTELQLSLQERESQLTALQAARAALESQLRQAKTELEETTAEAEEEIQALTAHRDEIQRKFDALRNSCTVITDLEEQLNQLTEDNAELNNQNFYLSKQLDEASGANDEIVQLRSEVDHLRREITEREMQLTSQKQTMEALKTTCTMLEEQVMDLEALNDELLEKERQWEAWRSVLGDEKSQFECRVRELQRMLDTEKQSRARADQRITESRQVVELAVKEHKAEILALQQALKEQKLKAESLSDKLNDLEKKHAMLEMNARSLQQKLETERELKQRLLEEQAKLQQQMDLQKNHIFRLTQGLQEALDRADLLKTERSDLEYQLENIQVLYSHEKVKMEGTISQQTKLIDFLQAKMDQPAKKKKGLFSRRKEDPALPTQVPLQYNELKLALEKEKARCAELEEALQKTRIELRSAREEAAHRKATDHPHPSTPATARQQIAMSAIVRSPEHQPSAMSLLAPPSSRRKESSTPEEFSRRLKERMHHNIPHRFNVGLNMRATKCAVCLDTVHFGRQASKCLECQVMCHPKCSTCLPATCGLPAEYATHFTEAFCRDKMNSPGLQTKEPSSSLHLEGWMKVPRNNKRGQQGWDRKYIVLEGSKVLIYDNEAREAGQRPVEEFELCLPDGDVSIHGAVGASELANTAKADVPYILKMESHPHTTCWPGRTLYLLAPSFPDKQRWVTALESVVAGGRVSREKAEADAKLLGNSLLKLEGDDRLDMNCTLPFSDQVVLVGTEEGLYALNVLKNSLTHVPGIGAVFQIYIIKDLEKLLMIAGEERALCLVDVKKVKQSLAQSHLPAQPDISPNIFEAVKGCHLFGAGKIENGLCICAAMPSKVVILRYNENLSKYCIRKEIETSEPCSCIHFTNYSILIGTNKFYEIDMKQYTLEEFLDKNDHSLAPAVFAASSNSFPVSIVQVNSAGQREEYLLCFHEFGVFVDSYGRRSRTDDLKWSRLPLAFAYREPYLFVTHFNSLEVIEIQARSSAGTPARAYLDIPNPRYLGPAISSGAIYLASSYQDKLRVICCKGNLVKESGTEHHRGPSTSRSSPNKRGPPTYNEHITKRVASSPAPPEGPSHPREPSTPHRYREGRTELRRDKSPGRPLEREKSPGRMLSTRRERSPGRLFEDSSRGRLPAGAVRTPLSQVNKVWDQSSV
UniProt Q9Y4K4, sequence (whole entry, looked up): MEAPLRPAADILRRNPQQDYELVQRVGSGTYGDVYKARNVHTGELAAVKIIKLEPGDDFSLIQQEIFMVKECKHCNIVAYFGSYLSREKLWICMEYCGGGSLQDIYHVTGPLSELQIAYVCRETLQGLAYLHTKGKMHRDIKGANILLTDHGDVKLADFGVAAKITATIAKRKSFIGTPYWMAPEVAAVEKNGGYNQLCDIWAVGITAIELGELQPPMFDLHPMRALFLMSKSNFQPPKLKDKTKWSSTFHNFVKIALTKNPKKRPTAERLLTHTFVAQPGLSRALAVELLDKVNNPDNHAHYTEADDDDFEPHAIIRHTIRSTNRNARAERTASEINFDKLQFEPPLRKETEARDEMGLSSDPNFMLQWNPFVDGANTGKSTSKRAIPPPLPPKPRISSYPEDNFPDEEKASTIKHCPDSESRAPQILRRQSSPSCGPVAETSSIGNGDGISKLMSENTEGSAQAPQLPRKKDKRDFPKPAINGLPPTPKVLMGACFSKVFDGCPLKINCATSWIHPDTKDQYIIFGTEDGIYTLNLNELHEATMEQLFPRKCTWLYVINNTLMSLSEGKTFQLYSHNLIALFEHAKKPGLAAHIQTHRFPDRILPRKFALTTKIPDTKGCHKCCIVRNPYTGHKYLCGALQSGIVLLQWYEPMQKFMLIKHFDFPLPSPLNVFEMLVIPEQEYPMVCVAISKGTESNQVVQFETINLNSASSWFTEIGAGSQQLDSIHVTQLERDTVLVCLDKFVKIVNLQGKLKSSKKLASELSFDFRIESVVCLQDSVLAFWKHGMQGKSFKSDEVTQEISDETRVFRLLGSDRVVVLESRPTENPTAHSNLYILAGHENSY
UniProt O00329, sequence (whole entry, looked up): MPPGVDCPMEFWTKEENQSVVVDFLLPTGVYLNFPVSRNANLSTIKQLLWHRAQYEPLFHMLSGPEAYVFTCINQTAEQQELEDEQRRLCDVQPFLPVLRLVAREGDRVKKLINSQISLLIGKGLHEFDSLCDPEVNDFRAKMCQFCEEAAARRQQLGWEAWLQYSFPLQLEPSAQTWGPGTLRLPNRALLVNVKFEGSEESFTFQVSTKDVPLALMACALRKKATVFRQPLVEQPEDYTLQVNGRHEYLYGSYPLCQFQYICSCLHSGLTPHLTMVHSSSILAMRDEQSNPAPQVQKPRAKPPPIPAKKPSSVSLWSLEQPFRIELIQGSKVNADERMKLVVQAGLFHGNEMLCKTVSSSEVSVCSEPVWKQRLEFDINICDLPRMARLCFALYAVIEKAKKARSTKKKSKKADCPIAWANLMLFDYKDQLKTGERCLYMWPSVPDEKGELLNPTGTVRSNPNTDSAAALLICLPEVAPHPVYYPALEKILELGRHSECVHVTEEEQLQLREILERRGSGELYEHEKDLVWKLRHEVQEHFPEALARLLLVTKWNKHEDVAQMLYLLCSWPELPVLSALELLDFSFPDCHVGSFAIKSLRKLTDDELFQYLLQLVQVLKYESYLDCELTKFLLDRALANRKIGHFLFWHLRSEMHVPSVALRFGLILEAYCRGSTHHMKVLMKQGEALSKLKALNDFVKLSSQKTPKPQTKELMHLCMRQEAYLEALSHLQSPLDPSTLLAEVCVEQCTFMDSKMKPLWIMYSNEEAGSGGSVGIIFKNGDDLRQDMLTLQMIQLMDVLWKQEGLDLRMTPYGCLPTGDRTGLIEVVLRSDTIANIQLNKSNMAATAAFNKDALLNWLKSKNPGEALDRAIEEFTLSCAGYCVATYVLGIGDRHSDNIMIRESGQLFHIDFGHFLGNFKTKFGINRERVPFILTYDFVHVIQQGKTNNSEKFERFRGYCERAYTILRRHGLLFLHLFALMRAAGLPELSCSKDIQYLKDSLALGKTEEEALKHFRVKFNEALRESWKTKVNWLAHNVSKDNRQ

Sample 1
Species: human
Medium: microsomes or S9
Tested at: 2 µM
Time: 0.5 h
`COc1cc(C(=O)Nc2ncc3c(n2)CC(c2ccc(C)cc2)CC3=O)cc(OC)c1OC` (centres unmarked) gave a remaining compound of 8.37%.
`CC(C)CCN(C)C1CCN(S(=O)(=O)c2ccc(C(C)(C)C)cc2)CC1` has a remaining compound of 54.2%.
The remaining compound of `CC(C)c1nnc(-c2cccnc2N2CCN(C(=O)C3COc4ccccc4O3)CC2)o1` (centres unmarked) is reported as 14.7%.
With `CCn1ccnc1C(O)c1cc(OC)ccc1OC` (centres unmarked) the remaining compound was 81.5%.
`[O-][S+](CCc1ccccc1)Cc1c(Cl)cccc1Cl` (centres unmarked) has a remaining compound of 0.772%.
`CC(C)N(CCNC(=O)c1ccc2c(c1)N(Cc1cccc(Cl)c1)C(=O)c1ccccc1[S+]2[O-])Cc1ccccc1` (centres unmarked) has a remaining compound of 0.234%.

Sample 2
Compound: C[C@@]1(Cc2ccc(C#N)cc2)C(=O)N(c2cc(Cl)cc(Cl)c2)c2ncc(C(=O)NC3(c4nc(C5CCC5)no4)CC3)n21
Read-out: cell-free assay
Technique: competition with immobilised ligand
Tested at: 1 µM
The remaining binding was 81% (Epithelial discoidin domain-containing receptor 1 (DDR1, Homo sapiens, UniProt Q08345)).
For Phosphatidylinositol 4,5-bisphosphate 3-kinase catalytic subunit delta isoform (PIK3CD, Homo sapiens, UniProt O00329): remaining binding read 73%.
The remaining binding was 100% (Epidermal growth factor receptor (EGFR, Homo sapiens, UniProt P00533, del752-759)).
For Tyrosine-protein kinase Srms (SRMS, Homo sapiens, UniProt Q9H3Y6): remaining binding read 100%.
Uncharacterized serine/threonine-protein kinase SBK3 (SBK3, Homo sapiens, UniProt P0C264) — remaining binding: 100%.
The remaining binding was 100% (Mast/stem cell growth factor receptor Kit (KIT, Homo sapiens, UniProt P10721, L576P)).
The remaining binding was 100% (Citron Rho-interacting kinase (CIT, Homo sapiens, UniProt O14578)).
It gave 92% for remaining binding (Serine/threonine-protein kinase 4 (STK4, Homo sapiens, UniProt Q13043)).
It gave 100% for remaining binding (Ribosomal protein S6 kinase alpha-3, N-terminal kinase domain (RPS6KA3, Homo sapiens, UniProt P51812)).
Mast/stem cell growth factor receptor Kit (KIT, Homo sapiens, UniProt P10721) — remaining binding: 98%.
It gave 99% for remaining binding (Ribosomal protein S6 kinase alpha-2, C-terminal kinase domain (RPS6KA2, Homo sapiens, UniProt Q15349)).
The remaining binding was 93% (Mitogen-activated protein kinase kinase kinase kinase 5 (MAP4K5, Homo sapiens, UniProt Q9Y4K4)).
The remaining binding was 85% (Mast/stem cell growth factor receptor Kit (KIT, Homo sapiens, UniProt P10721, V559D/V654A)).
It gave 100% for remaining binding (BDNF/NT-3 growth factors receptor (NTRK2, Homo sapiens, UniProt Q16620)).
For Dual specificity tyrosine-phosphorylation-regulated kinase 1A (DYRK1A, Homo sapiens, UniProt Q13627): remaining binding read 99%.
For Homeodomain-interacting protein kinase 2 (HIPK2, Homo sapiens, UniProt Q9H2X6): remaining binding read 100%.
Mitogen-activated protein kinase kinase kinase 14 (MAP3K14, Homo sapiens, UniProt Q99558) — remaining binding: 100%.
The remaining binding was 100% (Hepatocyte growth factor receptor (MET, Homo sapiens, UniProt P08581)).
For Tyrosine-protein kinase ABL1, non-phosphorylated (ABL1, Homo sapiens, UniProt P00519): remaining binding read 100%.
The remaining binding was 100% (Tyrosine-protein kinase ABL1, phosphorylated (ABL1, Homo sapiens, UniProt P00519, Q252H)).
The remaining binding was 100% (Serine/threonine-protein kinase Nek10 (NEK10, Homo sapiens, UniProt Q6ZWH5)).

Sample 3
Compound: Cc1ccc(NC(=O)c2ccc(CN3CCN(C)CC3)cc2)cc1Nc1nccc(-c2cccnc2)n1
Read-out: enzyme activity
Action: inhibitor
Tested at: 0.5 µM
Reference: control
For Fibroblast growth factor receptor 4 (FGFR4, Homo sapiens, UniProt P22455): remaining activity read 96.3%.
For G protein-coupled receptor kinase 6 (GRK6, Homo sapiens, UniProt P43250): remaining activity read 103%.
The remaining activity was 98.4% (Serine/threonine-protein kinase pim-2 (PIM2, Homo sapiens, UniProt Q9P1W9)).
Ephrin type-B receptor 2 (EPHB2, Homo sapiens, UniProt P29323) — remaining activity: 95.8%.
The remaining activity was 99.5% (Cytoplasmic tyrosine-protein kinase BMX (BMX, Homo sapiens, UniProt P51813)).
It gave 91.6% for remaining activity (Protein kinase C gamma type (PRKCG, Homo sapiens, UniProt P05129)).
It gave 110% for remaining activity (Serine/threonine-protein kinase Sgk1 (SGK1, Homo sapiens, UniProt O00141)).

Sample 4
Structure (SMILES): COc1cc(C(=O)N2CCC(N3CCN(C)CC3)CC2)ccc1Nc1ncc2c(n1)N(C)c1ccccc1C(=O)N2C
Technique: KINOMEscan
Tested at: 10 µM
Reference: DMSO control
Direction: lower = stronger binding
For CLK1: binding read 28%.
MTOR — binding: 97%.
LCK — binding: 100%.
For PRKCQ: binding read 100%.
The binding was 84% (FGR).
The binding was 85% (RIOK3).
MYLK2 — binding: 98%.
MARK3 — binding: 98%.
It gave 100% for binding (BMPR2).

Other studies, line by line
Under “patients with ventricular extrasystoles”, `CC(C)n1cnc(-c2ccc(F)cc2)c1-c1ncc(C(=O)Nc2ccc(N3CCN(C)CC3)cc2)[nH]1` is recorded as 0% (human, idiopathic pulmonary fibrosis; 60 mg once daily, trial, treatment-emergent).

Excerpt of the above (sample 1):
`COc1cc(C(=O)Nc2ncc3c(n2)CC(c2ccc(C)cc2)CC3=O)cc(OC)c1OC` (centres unmarked) gave a remaining compound of 8.37%.
`CC(C)N(CCNC(=O)c1ccc2c(c1)N(Cc1cccc(Cl)c1)C(=O)c1ccccc1[S+]2[O-])Cc1ccccc1` (centres unmarked) has a remaining compound of 0.234%.
With `CCn1ccnc1C(O)c1cc(OC)ccc1OC` (centres unmarked) the remaining compound was 81.5%.
`CC(C)CCN(C)C1CCN(S(=O)(=O)c2ccc(C(C)(C)C)cc2)CC1` has a remaining compound of 54.2%.
The remaining compound of `CC(C)c1nnc(-c2cccnc2N2CCN(C(=O)C3COc4ccccc4O3)CC2)o1` (centres unmarked) is reported as 14.7%.
`[O-][S+](CCc1ccccc1)Cc1c(Cl)cccc1Cl` (centres unmarked) has a remaining compound of 0.772%.
